Experimental data of several laboratories.
Every numbered part comes from another study and shows a few of its results, in no order.

Set 1
Target: human cyclin B2
Observed: peptide binding
Method: yeast competitive growth sequencing
Form: peptide
Organism: Saccharomyces cerevisiae
Strain: cyclin B2-Cln2 fusion
Tested at: concentration not given
Setting: peptide tiling library
Direction: direction not given
For `LRRKLFLDGNGSIS`, “binding enrichment score” read 0.188.
For `SSEVARHLLFQSHM`, “binding enrichment score” read 0.789.
For `CFRCLLFSFSGRSGVE`, “binding enrichment score” read -0.804.
Under “binding enrichment score”, `RSLKLDGLLEEN` is recorded as 0.273.
`ALLRRLQDVANDRGSH` — result for “binding enrichment score”: -0.155.
For `AEHPKPSACRNLFGPV`, “binding enrichment score” read -0.106.

Set 2
Target: PABPC1L2, full length, GST fusion (mouse, UniProt A0ABA7IW68)
Method: RNAcompete
Form: RNA
Sample: in vitro
Tested at: 20 nM
Setting: 7-mer, probes averaged, single round
Reference: mean of 7-mers
Direction: higher = stronger binding
Construct (chain): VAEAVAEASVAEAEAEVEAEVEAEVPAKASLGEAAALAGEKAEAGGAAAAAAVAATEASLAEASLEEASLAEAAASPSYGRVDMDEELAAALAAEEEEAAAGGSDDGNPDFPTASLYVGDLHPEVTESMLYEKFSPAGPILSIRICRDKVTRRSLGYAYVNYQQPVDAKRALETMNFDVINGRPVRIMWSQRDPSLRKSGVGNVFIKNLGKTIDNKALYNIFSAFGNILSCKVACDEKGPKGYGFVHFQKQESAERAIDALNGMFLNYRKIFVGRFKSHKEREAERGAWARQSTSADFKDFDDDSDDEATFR
With `AAGGACG` the 7-mer Z-score was 0.407.
For `AGCCAGA`, the 7-mer Z-score was 0.0678.
With `ACGAACU` the 7-mer Z-score was 0.095.
`ACCCCGA` gave a 7-mer Z-score of -0.257.
For `GGGCGCC`, the 7-mer Z-score was -0.195.
`GGGUUCA` gave a 7-mer Z-score of -0.0283.
The 7-mer Z-score of `GGACUGC` is reported as 0.178.
`AGUGAGA` gave a 7-mer Z-score of -0.0464.

Set 3
Target: RNA binding protein fox-1 homolog 2, RRM domain, GST-SBP tag (RBFOX2, Homo sapiens, UniProt O43251-10, residues 100-194)
Method: RNA Bind-n-Seq
Form: RNA
Sample: in vitro
Tested at: 365 nM
Setting: natural RNA segment, single round, ends assumed
Reference: no-protein control
Direction: higher = stronger binding
All sequences stand within: GGGAGUUCUACAGUCCGACGAUC … UGGAAUUCUCGGGUGCCAA
Target sequence (chain): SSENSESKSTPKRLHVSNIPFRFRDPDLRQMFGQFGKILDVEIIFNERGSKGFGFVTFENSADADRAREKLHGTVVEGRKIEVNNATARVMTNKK
`ACCAUGUAAACAUUAGGAAUGAACAGAGGCCUUAGGAAUGAAUAGAGAGUUUGCCUUAUACAAUUUCCUGUUACAAAGCUCUCCCUCUCAUGCAAAGUAGGGAACACCUU`: “RBNS enrichment (R)” 1.12.
Under “RBNS enrichment (R)”, `CACUGCUUGGGCUGCUUGUAGCGGAAUCCUUGGAAAACAGUUGUUGAGGGCCUUGACAGAUCGGGCCAGCGCUGACCUCUGUGCUCUGCUUCCUUUCUUUAUCCCUGUUU` is recorded as 0.554.
For `ACCUGUCACCAGCAGCCUGCGAGGGAAUGCGAGGUUGAUUGUCCCAGAGGCUCCCAACCCAUGCGCUACCAAAUACGCCUGGGCAGCCGGGCGGGCCAGCGGGCACCAGG`, “RBNS enrichment (R)” read 0.231.
`GGCUGUGCUGCCCUAGACCCGCCACACCAAGCCAUCCGCCCCUCACAGACCCUACAAGACGAUGUUAGGAAACACAUGCUUGCUGGCCUUGAAGGACACAGAGAGAAGUA`: “RBNS enrichment (R)” 0.779.
`UAAGGGUCCUAUGUGGCUGUGUUGUGACAGCCCUUACCCAGGUAAGAGAUGGAUGUCGUGAUGCCUCGUUGCCUUAAUGAGAGCUGAGUCAGCUGUCCUUCACCCUGGGA`: “RBNS enrichment (R)” 0.253.
Under “RBNS enrichment (R)”, `UAUUUUGUUCCCCAUGUUUAUGAAAGUCCUGCACAGUUUCAAAGGCAUGGUAAAUAAUAUAUCAAUGUUUAUGUAGUCUGUUACAGAAACAGCUAUAGAUAACAUUAUCC` is recorded as 0.604.
`UAUUACUCAUUAACCAGAUAACAAGUGAAUAUGCUGUAGCAUCAACAUAAUUCAAAAGAGUAAAGAAAUGGCUAGGAAUGAGGUAGUUGUGUAAUUAUUUCUUCUCUUAC` — result for “RBNS enrichment (R)”: 0.372.
`CCCCACCCCAGCUGUAGUUAAUUUCAGUGCCUUACAAAUCCUAAGCUCAGAGAAAGUUCCAUUUCCGUUCCAGAGGGAAGGGAACCUCCCUAGGUCCUUCCCUGGCUUGU`: “RBNS enrichment (R)” 1.04.
`CCCAAAAGUCAACCUCAGUCAAAUUAUCCACGCCAGCCACAGCAUACCUUGUUCCUCUAUGUGCCGCUGUGUGCCAGCCCUCAAACAUCUCCUGUAAAGAGAACAGAGGA`: “RBNS enrichment (R)” 0.441.

Other studies, line by line
With `PhoQ, residues 284 288 289 292 302 303 DDMDFR` the fold induction was 0.591 (PhoP, residues 12 14 15 18 19 NFCKL (Escherichia coli, UniProt P23836); Sort-seq, measured: YFP reporter; E. coli; PhoQ-PhoP variant library, added: 10 µM Mg2+; reference: high Mg2+ state, higher = stronger signaling).

Some of these lines once more (set 2):
With `AAGGACG` the 7-mer Z-score was 0.407.
For `GGGCGCC`, the 7-mer Z-score was -0.195.
